Results collected from several papers.
Each line is one published result; not all experiments were run side by side. Values joined by “and” are separate records of one study, mostly repeats; a detail may differ. ± gives the spread as reported.
Cell line: HepG2

The IC50 of `Cc1ccnc(-c2cc(C)ccn2)c1.[Co+2].[O-]c1c(I)cc(I)c2cccnc12.[O-]c1c(I)cc(I)c2cccnc12` is reported as 46.3 µM (cell growth or viability, MTT; 48 h).
For `CCOC(=O)c1ccc(NC(=O)C(C#N)=C2C(=O)c3ccccc3C2=O)cc1`, the viability was 78.6% (cell growth or viability, MTT; 6.25 µM, 24 h).
With `Cc1ccc(C(C)C)cc1.Cc1ccc(C(C)C)cc1.Cc1ccc(C(C)C)cc1.Cc1ccc(C(C)C)cc1.O=S(=O)(O)C(F)(F)F.O=S(=O)(O)C(F)(F)F.O=S(=O)(O)C(F)(F)F.O=S(=O)(O)C(F)(F)F.c1ccc2c3c4ccccc4c(c2c1)-c1cn(nn1)-c1cc[n+](cc1)[Ru-]1[O]c2c4ccccc4c4c5c(c6ccccc6c(c25)=[O+]1)=[O+][Ru-]([O]4)[n+]1ccc(cc1)-n1cc(nn1)-c1c2ccccc2c(c2ccccc12)-c1cn(nn1)-c1cc[n+](cc1)[Ru-]1[O]c2c4ccccc4c4c5c(c6ccccc6c(c25)=[O+]1)=[O+][Ru-]([O]4)[n+]1ccc(cc1)-n1cc-3nn1` the IC50 was 3 ± 0.27 µM (cell growth, MTT; 24 h, 20 µM preincubated in medium 0 h at 37 °C).
`CC(C)(C)NC(=O)CC(NC(=O)CCc1ccccc1)C(=O)NCCNC(=O)c1cccc2ccccc12` (stereo not drawn) gave an EC50 of 11.1 µM (cytotoxicity).
For `NC1=C(Cl)C(=O)c2ccccc2C1=O`, the selectivity index was 1.49 (MTT; baseline: IC50 MRC-5 over IC50 HepG2).
The IC50 of `NC(=O)c1ccc(-c2ccccc2Cl)c2c3c([nH]c12)CCC(N)C3` (stereo not drawn) is reported as 0.0217 µM (cell growth or viability; 96 h).
`C/C(=N\N=c1/[nH]c(-c2ccccc2)cs1)c1c(O)c2ccccc2oc1=O` has a selectivity index of over 2.1 (cell growth, MTT; baseline: IC50 BJ-1 over HepG2).
`COc1cccc2c1cc1c3c(cc4c(c32)OCO4)[C@@H]2c3c4c5c(cc6c(c5c5cccc(OC)c35)OCO6)CCN4[C@@H]2N1C` (racemic) has an inhibition of under 50% (cytotoxicity, MTT; 50 µg/mL, 48 h).
The IC50 of `Nc1nc(=O)n([C@@H]2O[C@H](CO)[C@@H](O)[C@H]2O)cc1F` is reported as 1.64 µM (cell growth or viability).
For `CCN(C(=O)c1cc(F)ccc1Oc1nncnc1N1CCC2(C1)CN([C@H](CCCN(C)CCOC)C(C)C)C2)C(C)C`, the GI50 was over 10 µM (cell growth or viability; 7 days).
The viability of `CCOC(=O)c1ccc(-n2c(N)c(C#N)c(SC)c(C#N)c2=O)cc1` is reported as 56.1% (cell growth or viability, MTT; 25 µM, 24 h).
For `CCC(=[NH+][Pt-2]1([OH])([OH])([Cl])[NH2+]CCC[NH2+]1)N(C)CCNc1c2ccccc2[nH+]c2ccccc12.O=[N+]([O-])[O-].O=[N+]([O-])[O-]`, “IC50 fold shift” read 130 fold (72 h, added: pyrimethamine 1 µM; baseline: with over without pyrimethamine).
With `CC1(C)CC[C@@]2(CO)C(=C3C=C[C@@H]4[C@@]5(C)CC[C@H](O)[C@@](C)(CO)[C@@H]5CC[C@@]4(C)[C@]3(C)C[C@@H]2O)C1` the ROS level was 1.23 and 1.03 and 1.5 (flow cytometry; concentration not given, high concentration, unit not given, added: ethanol; baseline: control).
For `CCN1C(=O)CS/C1=N/N=C(\C)c1c(O)c2ccccc2oc1=O`, the selectivity index was over 1.07 (cell growth, MTT; baseline: IC50 BJ-1 over HepG2).
`Cc1ccc2c(Cl)cc(Cl)c([O-])c2n1.Cc1ccc2c(Cl)cc(Cl)c([O-])c2n1.[Co+2].c1cnc2c(c1)ccc1cccnc12` gave an IC50 of 5.66 µM (cell growth or viability, MTT; 48 h).
`CSC(=S)N/N=C(\C)c1ccc(Nc2nnc(-c3ccc(Cl)cc3)c3ccccc23)cc1` gave a cell death of 82.4% (cell growth or viability, MTT; 0.312 µM).
`C/C(=N\NC(N)=S)c1c(O)c2ccccc2oc1=O` gave a selectivity index of over 1.63 (cell growth, MTT; baseline: IC50 BJ-1 over HepG2).
`CC(CCC(=O)[O][Pt]([NH2])([NH2])([OH])([Cl])[Cl])C1CCC2C3CCC4CC(O)CCC4(C)C3CCC12C` (stereo not drawn) gave an IC50 of 6.8 ± 0.3 µM (cell viability, MTT; 72 h).
The viability of `COc1ccc(NC(=O)c2c(Nc3ccccc3)sc(C(=O)N/N=C/c3ccc(OC)c(OC)c3)c2NC(C)=O)cc1` is reported as 74% (cell growth or viability, SRB; 0.1 µM, 48 h).
With `CC(C)(C)NC(=O)CC(NC(=O)CCc1ccccc1)C(=O)NCCNC(=O)c1ccc(-c2ccccc2)cc1` (stereo not drawn) the EC50 was over 100 µM (cytotoxicity).
With `NC1=C(Cl)C(=O)c2cccc([N+](=O)[O-])c2C1=O` the selectivity index was 1.35 (MTT; baseline: IC50 MRC-5 over IC50 HepG2).

Repeated from above:
`C/C(=N\N=c1/[nH]c(-c2ccccc2)cs1)c1c(O)c2ccccc2oc1=O` has a selectivity index of over 2.1 (cell growth, MTT; baseline: IC50 BJ-1 over HepG2).
For `CCN1C(=O)CS/C1=N/N=C(\C)c1c(O)c2ccccc2oc1=O`, the selectivity index was over 1.07 (cell growth, MTT; baseline: IC50 BJ-1 over HepG2).
